Results pooled from the literature.
Compare with care: the assays were run in different laboratories. “And” joins repeats or separate records; there may be more than shown. ± gives the spread as reported.

NC/C(=C\F)COc1cccc(Cn2c(=S)[nH]c(=O)c3[nH]cnc32)c1 — remaining compound (dog plasma; 1 µM, 1 h): 80%
O=C(c1ccccc1)c1ccc2n1CCC2C(=O)O (centres unmarked) — MRT(0-inf) (New Zealand White rabbit, male, plasma; oral, 10 mg/kg drug equivalent): 7.72 ± 0.12 h
CCOc1c([C@H](C)n2nc(C)c3c(N)ncnc32)cc(Cl)c(F)c1[C@@H]1CNC(=O)C1 — AUC(0-last) (patients, monotherapy; oral, 5 mg once daily, cycle 1 day 1): 2.11 µM·h
CCN(CC)Cc1ccc(CNC(=O)c2csc3nc[nH]c(=O)c23)cc1 — EC50 (haemolysis; human red blood cells; 1 h, 37 °C): > 100 µM
C[C@@H](O)CCOC(=O)C[C@@H](C)O — systolic blood pressure (human; oral drink, dose not given, 240 min post dose, mean): 115 mmHg
CCN1/C(=C/C(C)=O)Sc2ccc(F)cc21 — QT interval (cynomolgus monkey; oral, 30 mg/kg, 24 h post-dose): 264 ± 6 ms
CC(C)n1c(Nc2cccnc2)nc2cnc(Nc3ccc(N4CCN(C)CC4)cc3)nc21 — subjects with adverse event (item: sinus bradycardia; healthy male subjects; oral, 100 mg, study, added: gemfibrozil): 0%
N#Cc1ccc2c(c1)[C@H]1CCCN(C(=O)c3ccc4[nH]cnc4c3)[C@H]1C2 — SHBG level (human females; 40 mg, day 15): 35.1 nmol/L
C=CCN1CC(=O)N2[C@@H](Cc3ccc(O)cc3F)C(=O)N(Cc3cccc(N4CC(N5CCN(CC)CC5)C4)n3)C[C@@H]2N1C(=O)NCc1ccccc1 — treatment-related AST increased (advanced solid tumour patients; oral, 20 mg twice daily, grade ≥3, dose-escalation): 0%
Cl.[2H]C([2H])([2H])CC(=O)c1cnc(NC(=O)C2CC2)cc1Nc1cccc(-c2ncn(C([2H])([2H])[2H])n2)c1OC — Tmax (human, fed, multiple dose; oral, 60 mg once daily, tablet, day 14, median): 2.09 h
C=CC(=O)N1CCC(Oc2cc3c(Nc4ccc(Cl)c(Cl)c4F)ncnc3cc2OC)CC1 — MRT(0-t) (Sprague-Dawley rat, male, plasma; oral, 2 mg/kg, 1 weeks pretreatment, added: Schisandrin B 20 mg/kg daily pretreatment): 4.49 ± 0.52 h
CSc1cc(C)nc(SC)c1NC(=O)CN1CCN(CCSc2nc3ccccc3[nH]2)CC1.Cl — olfactory epithelium thickness (mouse, nasal olfactory epithelium; intranasal, 10 µL of 3.24 mg/mL in 0.01 N HCl daily, 7 days): 50.4 and 41.3 and 48.6 and 50.8
O=C(O)/C=C/c1ccccc1O — CSF concentration (human CSF; concentration not given, mean): not detected
CNc1ccc(-c2nc3ccc(O)cc3s2)cc1 [carbon-11 labelled] — uptake (ex vivo biodistribution; APP/PS1 Alzheimer mice, cecum; intravenous, 30 min): 0.435 ± 0.236 SUV
O=C(O)c1ccc(O)c(O)c1 — CSF concentration (human CSF; concentration not given, mean): not detected
O=C1Cc2cc(CCN3CCN(c4nsc5ccccc45)CC3)c(Cl)cc2N1 — heart rate (male Hartley guinea pigs, anaesthetized; intravenous, 1 mg/kg over 10 min, after infusion): 171 ± 0.5 beats/min
Cc1ccc([C@@H]2O[C@H](CO)[C@@H](O)[C@H](O)[C@H]2O)cc1Cc1ccc(-c2ccc(F)cc2)s1 — urinary potassium excretion change (Japanese type 2 diabetes patients; 25 mg, day 3, 24 h urine collection; reference: baseline): -1.7 mEq
CN(CCC#N)C1CCN(C(=O)Cn2cc(NC(=O)c3cnn4cccnc34)c(-c3cc(Cl)ccc3OC(F)F)n2)CC1 — reticulocyte count change (human, single ascending dose; 1.5 mg, day 4; reference: baseline): 2.8 10⁹/L
Cc1noc(C)c1-c1cc(C(O)(c2ccccn2)c2ccccn2)c2nc(C3CC3)[nH]c2c1 — AUC(0-tau) (human patients, plasma; oral, 2 mg, cycle 1 day 8, monotherapy): 1590 ng·h/mL
CC(C(=O)NCC(=O)NCC(CNC(=O)CNC(=O)C(C)N1CCN(CC(=O)[O-])CCN(CC(=O)[O-])CCN(CC(=O)[O-])CC1)(CNC(=O)CNC(=O)C(C)N1CCN(CC(=O)[O-])CCN(CC(=O)[O-])CCN(CC(=O)[O-])CC1)CNC(=O)CNC(=O)C(C)N1CCN(CC(=O)[O-])CCN(CC(=O)[O-])CCN(CC(=O)[O-])CC1)N1CCN(CC(=O)[O-])CCN(CC(=O)[O-])CCN(CC(=O)[O-])CC1.[Gd+3].[Gd+3].[Gd+3].[Gd+3] (centres unmarked) — lanthanide tissue concentration (cynomolgus monkey, cerebellum; dose not given, day 5): 0.031 ± 0.008 nmol/g
COc1ccc2c(c1)CN(C(=O)CCN1CCC(Cc3ccccc3)CC1)CC[S@@+]2[O-] — heart rate (telemetry; conscious dog; intravenous, 2 mg/kg, 0.5 h): 110 ± 7 beats/min
O=C(CCCN1CCC(O)(c2ccc(Cl)cc2)CC1)c1ccc(F)cc1 — heart rate (male Hartley guinea pigs, anaesthetized; intravenous, 0.01 mg/kg over 10 min, after infusion): 220 ± 0.5 beats/min
O=C(O)CCC(=O)O.[2H]C([2H])([2H])Oc1cc(C)c2[nH]ccc2c1CN1CC[C@@H](C2CC2)C[C@H]1c1ccc(C(=O)O)cc1 — subjects with increased creatinine TEAE (multiple ascending dose; healthy Chinese subjects; 100 mg twice daily): 0%
COc1cc(Nc2ncc3c(n2)-c2ccc(Cl)cc2C(c2c(F)cccc2OC)=NC3)ccc1C(=O)O — anaemia incidence (patients; oral, dose not given, grade 3, any attribution, added: pembrolizumab): 17%
O=C(COc1ccc(Cl)cc1)NC12CC(c3nnc([C@H]4C[C@@H](OC(F)(F)F)C4)o3)(C1)C2 — treatment-emergent adverse events (item: Tachycardia; healthy humans, both sexes; oral, 800 mg, single ascending dose; reference: subjects): 16.7%
O=C(O)/C=C/c1ccccc1 — CSF concentration (human CSF; concentration not given, mean): not detected
CC[C@H](C)[C@H](NC(=O)[C@H](Cc1ccccc1)NC(=O)[C@H](CCC(=O)O)NC(=O)[C@H](CCCCNC(=O)COCCOCCNC(=O)COCCOCCNC(=O)CC[C@H](NC(=O)CCCCCCCCCCCCCCCCC(=O)O)C(=O)O)NC(=O)[C@H](C)NC(=O)[C@H](C)NC(=O)[C@H](CCC(N)=O)NC(=O)CNC(=O)[C@H](CCC(=O)O)NC(=O)[C@H](CC(C)C)NC(=O)[C@H](Cc1ccc(O)cc1)NC(=O)[C@H](CO)NC(=O)[C@H](CO)NC(=O)[C@@H](NC(=O)[C@H](CC(=O)O)NC(=O)[C@H](CO)NC(=O)[C@@H](NC(=O)[C@H](Cc1ccccc1)NC(=O)[C@@H](NC(=O)CNC(=O)[C@H](CCC(=O)O)NC(=O)C(C)(C)NC(=O)[C@@H](N)Cc1cnc[nH]1)[C@@H](C)O)[C@@H](C)O)C(C)C)C(=O)N[C@@H](C)C(=O)N[C@@H](Cc1c[nH]c2ccccc12)C(=O)N[C@@H](CC(C)C)C(=O)N[C@H](C(=O)N[C@@H](CCCNC(=N)N)C(=O)NCC(=O)N[C@@H](CCCNC(=N)N)C(=O)NCC(=O)O)C(C)C — QT change from baseline (12-lead Holter ECG; healthy humans; subcutaneous, 1.5 mg once weekly, 36 h, steady state; reference: placebo): -19.7 ms
NC1(C(=O)N[C@@H](CCO)c2ccc(Cl)cc2)CCN(c2nc[nH]c3nccc2-3)CC1 — incidence of Erythema (metastatic CRPC patients; 480 mg b.i.d., grade 3 to 4, treatment-related, added: enzalutamide 160 mg daily): 0%
CC(C)C[C@H](NC(=O)[C@H](Cc1ccccc1)NC(=O)c1cnccn1)B(O)O — organ weight (mouse xenograft, liver; dose not given): 651 mg
COc1ccc([C@@H](O)c2cc(-c3ncnc4cc(N5CCOCC5)ccc34)c(F)cc2Cl)nn1 — lymphopenia TEAE incidence (locally advanced rectal cancer patients; 100 mg, added: capecitabine and radiotherapy): 17%
CCn1cc(C(=O)N2CCOCC2)c(=O)c2cc(NC3Cc4ccccc4C3)cnc21 — Tmax (human, fasted; oral suspension, 15 mg single dose, median): 1.5 h
COc1ccc2nc([S@@+]([O-])Cc3ncc(CO)c(OC)c3C)[nH]c2c1 — AUC(0-8 h) (human, dried plasma spots; 5 mg racemic omeprazole; reference: baseline): 0.0174 µM·h
CNC(=O)c1ccc(-c2cnc3ncc(Cc4ccc5ncccc5c4)n3n2)cc1F — patients with adverse event (item: Anemia, all grades; cancer patients; oral, 600 mg twice daily, other expansion cohort, any causality): 11%
Cc1c(Cl)c(C)[n+]([O-])c(Cl)c1-c1noc(-c2cc(O)c(O)c([N+](=O)[O-])c2)n1 — TEAEs causing discontinuation (healthy subjects; oral, dose not given, all subjects): 2.9%
COc1cc2nccc(Oc3ccc(NC(=O)c4cc5c(n(-c6ccccc6)c4=O)CCCC5=O)nc3)c2cc1OC — TEAEs leading to interruption (patients with relapsed/refractory AML; oral, 6 mg once daily): 33.3%

For quick reference, copied from above:
NC1(C(=O)N[C@@H](CCO)c2ccc(Cl)cc2)CCN(c2nc[nH]c3nccc2-3)CC1 — incidence of Erythema (metastatic CRPC patients; 480 mg b.i.d., grade 3 to 4, treatment-related, added: enzalutamide 160 mg daily): 0%
CC(C)C[C@H](NC(=O)[C@H](Cc1ccccc1)NC(=O)c1cnccn1)B(O)O — organ weight (mouse xenograft, liver; dose not given): 651 mg
COc1ccc([C@@H](O)c2cc(-c3ncnc4cc(N5CCOCC5)ccc34)c(F)cc2Cl)nn1 — lymphopenia TEAE incidence (locally advanced rectal cancer patients; 100 mg, added: capecitabine and radiotherapy): 17%
CCn1cc(C(=O)N2CCOCC2)c(=O)c2cc(NC3Cc4ccccc4C3)cnc21 — Tmax (human, fasted; oral suspension, 15 mg single dose, median): 1.5 h
